Published values pooled from the literature.
Compare with care: the assays were run in different laboratories. ± marks the error that the study gave.

Substance | target or system | assay | system | conditions | how to read | measurement | value
CC(C)Oc1ccc(-c2ccc3cnc(-c4ccc(OC(C)C)cc4)n3c2)cc1 | vesicular stomatitis virus | viral entry, inhibitor | – | pseudotyped with Lassa virus glycoprotein | – | EC50 | > 0.02 µM
CCN(CC)CCNC(=O)c1cc(Cl)c(NC(=O)COc2ccc(Cl)cc2)cc1OC | SARS-CoV-2 | viral replication, GFP plate reader screen | – | cell-based | – | EC50 | 3.63 µM
CNC(=O)[C@@H](NC(=O)[C@H](CC(C)C)[C@H](O)C(=O)NO)C(C)(C)C | human fibrinogen | SDS-PAGE | Daboia russelii | concentration not given, unit not given, with: RJ venom | baseline: untreated fibrinogen | remaining fibrinogen Bβ chain | 0.836
Cc1cc(C)c2sc(NC(=O)c3cc4ccccc4o3)nc2n1 | Yellow fever virus | cytopathic effect, neutral red uptake | Huh-7 | – | – | EC50 | > 32 µM
CN(C)C1CCN(C(=O)CN(Cc2ccccc2)c2ccccc2)CC1 | Marburg virus | pseudovirus entry | A549 | – | – | EC50 | > 100 µM
O=C1CCC(=O)N1CC1CCOC2(CCN(C(=O)C3(c4ccccc4)CCCC3)CC2)C1 (centres unmarked) | Venezuelan equine encephalitis virus | viral replication | – | – | – | EC50 | 0.501 µM
CC(C)(C)c1ccc(CN2CCN(C(c3ccccc3)c3ccc(Cl)cc3)CC2)cc1 (centres unmarked) | SARS-CoV-2 | viral replication, GFP plate reader screen | – | cell-based | – | EC50 | > 100 µM
O=C(Nc1ccc(N2CCC3(CCC3)CC2)c(C(F)(F)F)c1)c1ccc(C(=O)N2C[C@@H]3C[C@H]2CO3)nc1 | Marburg virus Angola | viral replication | wild type | – | – | EC50 | 1.33 ± 0.16 µM
Clc1ccc2nc(N3CCC(NCCc4cccnc4)CC3)sc2c1 | SARS-CoV-2 | cytopathic effect | USA_WA1/2020 | retest, 8-point, duplicates | – | maximum response | 76.2%
CO[C@H]1/C=C/O[C@@]2(C)Oc3c(C)c(O)c4c(O)c(c(/C=N/N5CCN(C6CCCC6)CC5)c(O)c4c3C2=O)NC(=O)/C(C)=C\C=C\[C@H](C)[C@H](O)[C@@H](C)[C@@H](O)[C@@H](C)[C@H](OC(C)=O)[C@@H]1C | Yellow fever virus | viral replication | Vero | – | – | EC50 | 0.252 µM
CC[C@H](C)[C@H](NC(=O)[C@H](CC(C)C)NC(=O)[C@H](Cc1c[nH]c2ccccc12)NC(=O)[C@H](CCC(N)=O)NC(=O)[C@@H](NC(=O)[C@H](Cc1ccccc1)NC(=O)[C@H](C)NC(=O)[C@H](CCCCNC(=O)COCCOCCNC(=O)COCCOCCNC(=O)CC[C@H](NC(=O)CCCCCCCCCCCCCCCCCCC(=O)O)C(=O)O)NC(=O)[C@H](CCC(N)=O)NC(=O)[C@H](C)NC(=O)[C@@H](NC(=O)[C@H](CCCCN)NC(=O)[C@H](CC(=O)O)NC(=O)[C@H](CC(C)C)NC(=O)C(C)(C)NC(=O)[C@@H](NC(=O)[C@H](CO)NC(=O)[C@H](Cc1ccc(O)cc1)NC(=O)[C@H](CC(=O)O)NC(=O)[C@H](CO)NC(=O)[C@@H](NC(=O)[C@H](Cc1ccccc1)NC(=O)[C@@H](NC(=O)CNC(=O)[C@H](CCC(=O)O)NC(=O)C(C)(C)NC(=O)[C@@H](N)Cc1ccc(O)cc1)[C@@H](C)O)[C@@H](C)O)[C@@H](C)CC)[C@@H](C)CC)C(C)C)C(=O)N[C@@H](C)C(=O)NCC(=O)NCC(=O)N1CCC[C@H]1C(=O)N[C@@H](CO)C(=O)N[C@@H](CO)C(=O)NCC(=O)N[C@@H](C)C(=O)N1CCC[C@H]1C(=O)N1CCC[C@H]1C(=O)N1CCC[C@H]1C(=O)N[C@@H](CO)C(N)=O | – | – | healthy subjects, single ascending dose | 8.0 mg, day 29 | baseline: baseline | systolic blood pressure change | 5.27 mmHg
O=C(N1CCC2(CC1)CC(CN1CCCCS1(=O)=O)CCO2)C1(c2ccc(F)cc2)CCCC1 (centres unmarked) | Venezuelan equine encephalitis virus | viral replication | – | – | – | EC50 | > 39.8 µM
Cn1cnc(Cn2c(=O)[nH]/c(=N\c3cc4cn(C)nc4cc3Cl)n(Cc3cc(F)c(F)cc3F)c2=O)n1 | canine coronavirus | viral replication, qRT-PCR | CRFK | – | – | EC50 | ~50 µM
Cc1cc2nnn(-c3ccc(OC(C)C)cc3)c2cc1-c1ccc(OC(C)C)cc1 | vesicular stomatitis virus | viral entry, inhibitor | – | pseudotyped with Machupo virus glycoprotein | – | EC50 | ≤ 0.004 µM
CC[C@@H](C(=O)[C@@H](C)[C@@H](O)[C@H](C)CCc1ccc(C)c(O)c1C(=O)O)[C@H]1O[C@](CC)([C@H]2CC[C@](O)(CC)[C@H](C)O2)C[C@@H]1C | SARS-CoV-2 | viral replication, GFP plate reader screen | – | cell-based | – | EC50 | > 0.631 µM
Nc1ncnc2c([C@@H]3N[C@H](CO)[C@@H](O)[C@H]3O)c[nH]c12 | Zaire ebolavirus | viral replication | HeLa, Kikwit | 400 µM | – | inhibition | 99.7%
COC(=O)N[C@H](C(=O)N1CCC[C@H]1c1ncc(-c2ccc(-c3ccc(-c4cnc([C@@H]5CCCN5C(=O)[C@@H](NC(=O)OC)C(C)C)[nH]4)cc3)cc2)[nH]1)C(C)C | Enterovirus C (poliovirus) | viral replication | MRC5 | – | – | EC50 | > 29 µM
CC(CN(C)C)CN1c2ccccc2CCc2ccccc21 (centres unmarked) | Severe acute respiratory syndrome coronavirus | pseudoparticle entry | Vero C1008 | 48 h | – | EC50 | 4.29 µM
oseltamivir carboxylate | Influenza B virus | viral replication, visual CPE score | – | – | – | EC50 | 45 µM

Substance | target or system | assay | system | conditions | how to read | measurement | value
CCc1c(C(=O)C(N)=O)c2c(OCC(=O)O)cccc2n1Cc1ccccc1 | – | – | PB population, mouse | intravenous, 120 µg/mouse, 24 h, preincubated with venom, with: Daboia russelii venom 2.5 x LD50 | – | survival | 100%
CC(C)(C(=O)N1CCC2(CC1)CC(CNS(C)(=O)=O)CCO2)c1ccccc1 (centres unmarked) | Venezuelan equine encephalitis virus | viral replication | – | – | – | EC50 | > 39.8 µM
COc1ccc2c(Sc3ccc(Cl)cc3)c(C(=O)NCCCN3CCCCC3)[nH]c2c1 | SARS-CoV-2 | cytopathic effect | USA_WA1/2020 | retest, 8-point, duplicates | – | efficacy | 81.5%
CCCCCCCCNC(C)C(O)c1ccc(SC(C)C)cc1 (centres unmarked) | SARS-CoV-2 | viral replication, high-content imaging screen | BetaCov/Belgium/GHB-03021/2020 | cell-based | – | EC50 | > 100 µM
NC(=O)c1ncn([C@@H]2O[C@H](CO)[C@@H](O)[C@H]2O)n1 | Rift Valley fever virus | viral replication | MDCK | – | – | EC50 | 17 µM
N#Cc1c(Nc2ccc(F)cc2)n[nH]c1NS(=O)(=O)c1ccc2ccccc2c1 | Western equine encephalitis virus | viral replication | Vero 76, California | – | – | EC50 | > 6.8 µM
CCOC(=O)[C@H]1O[C@@H]1C(=O)N[C@@H](CC(C)C)C(=O)NCCC(C)C | SARS-CoV-2 prototype | pseudovirus infection | – | – | – | EC50 | 0.23 µM
O=C(NN1C(=O)C2C3C=CC(C4CC34)C2C1=O)c1ccc(C(F)(F)F)cc1 (centres unmarked) | Monkeypox virus | viral replication | Vero | – | – | EC50 | 0.0012 ± 0.0006 µM
Nc1ccn(C[C@@H](CO)OCP(=O)(O)O)c(=O)n1 | Vaccinia virus | viral replication | HEL | – | – | EC50 | 22 µM
O=C(N1CCC2(CC1)C[C@@H](CN1CCCCS1(=O)=O)CCO2)C1(c2ccccc2)CCCC1 | Yellow fever virus | viral replication | Huh-7 | – | – | EC50 | > 32 µM
O=c1ccn([C@@H]2O[C@H](CO)[C@@H](O)[C@H]2O)c(=S)[nH]1 | yellow fever virus | viral replication | BHK-21 | – | – | EC50 | 2.9 µM
CN1[C@@H]2CC[C@H]1C[C@@H](OC1c3ccccc3CCc3ccccc31)C2 | SARS-CoV-2 | viral replication, high-content imaging screen | – | cell-based | – | EC50 | > 50.1 µM
O=C(N1CCC2(CC1)CC(CNCC(F)(F)F)CCO2)C1(c2ccccc2)CCCC1 (centres unmarked) | Venezuelan equine encephalitis virus | viral replication | – | – | – | EC50 | > 39.8 µM
Nc1ccn(C[C@@H](CO)OCP(=O)(O)O)c(=O)n1 | vaccinia virus | viral replication | HEL | – | – | EC50 | 10 µM
Cc1cc2ncc(-c3ccc(OC(C)(C)C)cc3)n2cc1-c1ccc(OC(C)C)cc1 | vesicular stomatitis virus | viral entry, inhibitor | – | pseudotyped with Lassa virus glycoprotein | – | EC50 | ≤ 0.004 µM
Nc1ccn(C[C@@H](CO)OCP(=O)(O)O)c(=O)n1 | Monkeypox virus | viral replication | HEL 299 | – | – | EC50 | 17.2 ± 6.4 µM
O=C1c2c(O)c(=O)ccn2N([C@@H]2c3ccccc3SCc3c2ccc(F)c3F)[C@@H]2COCCN12 | Influenza A virus | viral replication, plaque reduction | A(H7N7) A/environment/Bangladesh/41896/2019 | mean | – | EC50 | 0.00011 µM
CC(C)Oc1ccc(-c2ccn3cnc(-c4ccc(OC(C)C)cc4)c3c2)cc1 | vesicular stomatitis virus | viral entry, inhibitor | – | pseudotyped with Lassa virus glycoprotein | – | EC50 | > 0.02 µM
NC(=O)C1CN(CCCCC(c2ccc(F)cc2)c2ccc(F)cc2)CCN1CC(=O)Nc1c(Cl)cc(N)cc1Cl (centres unmarked) | SARS-CoV-2 | viral replication, GFP plate reader screen | – | cell-based | – | EC50 | > 100 µM

Substance | target or system | assay | system | conditions | how to read | measurement | value
O=C(NCC1CCOC2(CCN(C(=O)C3(c4ccccc4)CCCC3)CC2)C1)c1cccnc1 (centres unmarked) | Venezuelan equine encephalitis virus | viral replication | – | – | – | EC50 | 12.6 µM
NC(=O)c1nc(F)c[nH]c1=O | Lyssavirus rabies | viral replication, refers to: RABV | BHK-21 | – | – | EC50 | 5.9 µM
COc1ccc(C(=O)NCC2CCOC3(CCN(C(=O)C4(c5ccccc5)CCCC4)CC3)C2)cc1 (centres unmarked) | Venezuelan equine encephalitis virus | viral replication | – | – | – | EC50 | 20 µM
N#Cc1ccc2c(c1)N(CCCN1CCC(O)CC1)c1ccccc1S2 | SARS-CoV-2 | viral replication, GFP plate reader screen | – | cell-based | – | EC50 | > 20 µM
COc1c(C)c2c(c(O)c1C/C=C(\C)CCC(=O)O)C(=O)OC2 | Junin virus | viral replication, inhibitor | Vero, Candid #1 | – | – | EC50 | 1 ± 0.6 µM
O=C(Nc1ccc(N2CCOCC2)cc1)c1cc2occc2n1Cc1ccc(Cl)cc1 | Marburg virus | pseudovirus entry | A549 | – | – | EC50 | > 100 µM
NCC(=O)NCC(=O)N1Cc2cc(Cl)ccc2CC1c1ccccc1 (centres unmarked) | SARS-CoV | viral replication | Vero 76 | 72 h | – | EC50 | 26 µM
CC1(C)[C@@H](O[C@H]2O[C@H](C(=O)O)[C@@H](O)[C@H](O)[C@H]2O[C@@H]2O[C@H](C(=O)O)[C@@H](O)[C@H](O)[C@H]2O)CC[C@]2(C)[C@H]3C(=O)C=C4[C@@H]5C[C@@](C)(C(=O)O)CC[C@]5(C)CC[C@@]4(C)[C@]3(C)CC[C@@H]12 | SARS coronavirus | – | FRhK-4 | 72 h | – | EC50 | > 400 µg/mL
COc1ccc2[nH]c(C(O)c3ccc(Cl)cc3)c(CCNC(C)=O)c2c1 (centres unmarked) | lentivirus, spike-pseudotyped, SARS-CoV-2 | viral entry | HEK293 | – | – | EC50 | 0.631 µM
Cn1cnc(Cn2c(=O)[nH]/c(=N\c3cc4cn(C)nc4cc3Cl)n(Cc3cc(F)c(F)cc3F)c2=O)n1 | – | – | human, normal renal function | oral, 375 mg, single dose, geometric mean | – | terminal elimination rate constant | 4.39e-06 s⁻¹
S=c1[nH]nc(NCNc2n[nH]c(=S)s2)s1 | Xanthomonas oryzae pv. oryzae | bacterial growth | – | – | – | EC50 | 16 µg/mL
CC[C@H]1CN2CC[C@H]1C[C@@H]2[C@@H](O)c1ccnc2ccc(OC)cc12 | SARS-CoV-2 | viral replication, high-content imaging screen | – | cell-based | – | EC50 | > 25.1 µM
CN(C)S(=O)(=O)NCC1CCOC2(CCN(C(=O)C3(c4ccccc4)CCCO3)CC2)C1 (centres unmarked) | Venezuelan equine encephalitis virus | viral replication | – | – | – | EC50 | > 39.8 µM
Nc1ncnc2c([C@@H]3N[C@H](CO)[C@@H](O)[C@H]3O)c[nH]c12 | Junin virus | viral replication, inhibitor | Vero, Candid #1 | – | – | EC50 | > 100 µM
Cc1cc2ncn(-c3ccc(OC(C)C)cc3)c2cc1-c1ccc(OC(C)C)cc1 | Lassa virus | viral replication | – | – | – | EC50 | < 0.0033 µM
CN(C)S(=O)(=O)NCC1CCOC2(CCN(C(=O)C3(c4cccnc4)CCCC3)CC2)C1 (centres unmarked) | Venezuelan equine encephalitis virus | viral replication | – | – | – | EC50 | > 39.8 µM
O=c1ccn([C@@H]2O[C@](F)(CO)[C@@H](O)[C@H]2O)c(=O)[nH]1 | Junin virus | viral replication | HeLa, Romero | – | – | EC50 | 0.11 ± 0.09 µM
N#C[C@@]1(n2ccc(N)nc2=O)O[C@H](CO)[C@@H](O)[C@H]1O | yellow fever virus | viral replication, cell-based | – | – | – | EC50 | > 10 µM

Repeated from above:
Substance | target or system | assay | system | conditions | how to read | measurement | value
COC(=O)N[C@H](C(=O)N1CCC[C@H]1c1ncc(-c2ccc(-c3ccc(-c4cnc([C@@H]5CCCN5C(=O)[C@@H](NC(=O)OC)C(C)C)[nH]4)cc3)cc2)[nH]1)C(C)C | Enterovirus C (poliovirus) | viral replication | MRC5 | – | – | EC50 | > 29 µM
CC(CN(C)C)CN1c2ccccc2CCc2ccccc21 (centres unmarked) | Severe acute respiratory syndrome coronavirus | pseudoparticle entry | Vero C1008 | 48 h | – | EC50 | 4.29 µM
oseltamivir carboxylate | Influenza B virus | viral replication, visual CPE score | – | – | – | EC50 | 45 µM
CCc1c(C(=O)C(N)=O)c2c(OCC(=O)O)cccc2n1Cc1ccccc1 | – | – | PB population, mouse | intravenous, 120 µg/mouse, 24 h, preincubated with venom, with: Daboia russelii venom 2.5 x LD50 | – | survival | 100%
